Experimental data collected from several papers.
Numbered parts are unrelated; each lists some results of a single study.

Series 1 — technique: RNA Bind-n-Seq; form: RNA; sample: in vitro; concentration: 200 nM; setting: whole 134-nt RNA, ends assumed; together with: 150 mM KCl; reference: input library; reading: higher = stronger binding
Target: Ras GTPase-activating protein-binding protein 1, full length (G3BP1, Homo sapiens, UniProt Q13283)
UniProt Q13283, sequence (whole entry, looked up): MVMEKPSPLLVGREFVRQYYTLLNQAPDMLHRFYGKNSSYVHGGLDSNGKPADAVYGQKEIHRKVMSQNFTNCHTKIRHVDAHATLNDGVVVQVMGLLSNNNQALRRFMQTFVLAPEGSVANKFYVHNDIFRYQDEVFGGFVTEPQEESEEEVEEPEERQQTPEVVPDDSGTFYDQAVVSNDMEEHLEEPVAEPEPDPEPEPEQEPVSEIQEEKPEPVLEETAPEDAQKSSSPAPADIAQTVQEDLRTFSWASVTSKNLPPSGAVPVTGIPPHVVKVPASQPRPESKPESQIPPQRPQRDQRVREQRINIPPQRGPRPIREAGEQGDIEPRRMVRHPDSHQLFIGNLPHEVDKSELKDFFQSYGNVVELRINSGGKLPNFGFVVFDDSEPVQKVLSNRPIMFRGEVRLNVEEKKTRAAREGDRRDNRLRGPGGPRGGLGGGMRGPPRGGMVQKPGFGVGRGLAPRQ
Sequence	log2 enrichment
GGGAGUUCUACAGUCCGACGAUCAGUCCUGUGCUACACAUCGUAUGUACCGAAUCGGCCCCCGGGCCCCCGGGCCCCCGGAAAGUAUUAUGUUACGCCGUUCGGAUCUGCACUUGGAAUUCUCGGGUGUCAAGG	-1.17
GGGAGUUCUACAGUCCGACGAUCACCAUGCAGGUGGGCAUCUUUGGGAAGUGGGGCAAGGGGGGGAUAGGGAGGGGGGUCACACUUUGGGAACAGGUGGUCCCAGGUCGUUUCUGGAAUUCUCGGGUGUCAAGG	1.43
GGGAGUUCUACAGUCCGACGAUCGAAAUACCAUCGGAAGACGAUGGGACGGUGCUGCUCUCCACGGUUACAGCCCAGUUUCCAGGGGCGUGUGGGCUUCGCUACAGGAAUCCAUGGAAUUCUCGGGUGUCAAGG	-1.17
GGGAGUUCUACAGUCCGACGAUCCAAGUCCUGUGCUACACAUCGUAUGUACCGAAUCGGGUUUGGGGUUUGGGUUUGGAAAGUAUUAUGUUACGCCGUUCGGAUCUGCACUUCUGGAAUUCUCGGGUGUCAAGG	-0.188
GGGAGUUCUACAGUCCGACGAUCCUGUGCUACACAUCGUAUGUACCGAAUCAAAUUUUUUUAAACCCCCCCAAACCCCCCCAAAAAAGUAUUAUGUUACGCCGUUCGGAUCUGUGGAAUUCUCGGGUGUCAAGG	-0.0956
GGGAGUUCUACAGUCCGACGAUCCCUGUGCUACACAUCGUAUGUACCGAAUCGGGGAAAAAAAGGGGUUUGGGGUUUUUGGGGAAAGUAUUAUGUUACGCCGUUCGGAUCUGCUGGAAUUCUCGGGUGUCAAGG	0.394
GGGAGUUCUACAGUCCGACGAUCACCAUGCAGGUGGGCAUCUUUGGGAAGUGGGGCAAGGGGGGGAUAGGGAGGGGGGUGACACUUUGGGAACAGGUGGUCCCAGGUCGUUUCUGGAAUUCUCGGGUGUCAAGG	1.03
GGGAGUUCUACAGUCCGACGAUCUGGGAGGUGGAUUUUGUUUAUUUUUUUAGCUCAUUUCCAGGGGUGGGAAUUUUUUUUUAAUAUGUCUCAUGAAUAAAGUUGUUUUUGAAAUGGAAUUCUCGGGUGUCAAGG	0.0833
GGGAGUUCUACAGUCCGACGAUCGCAGGAAGUAAAAACAAAUGGAAAUGCUUCGGAUAGUGGCAGGGGUGGGGGUUGCUAAGGAAAGGGUGGGAUGGGAGUAGGUAAAGAGUUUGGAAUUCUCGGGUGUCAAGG	0.704
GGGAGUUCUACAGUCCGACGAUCGGGGUGAGCACAGACAGGAUCGCAGGGAGAGGCCGUAUUAAUUAGCCUGGCUCCCCAGGUUCUGGAACAGCUUUUUGUCCUGUACCCAGUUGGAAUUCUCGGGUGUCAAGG	0.00666

Series 2 — technique: protein binding microarray; form: double-stranded DNA, one strand shown; sample: in vitro; concentration: not given; reference: not given; reading: higher = stronger binding
Target: Histone acetyltransferase KAT6A, winged helix 1, GST fusion (KAT6A, Homo sapiens, UniProt Q92794, residues 1-85)
Setting: 8-mer, flanks averaged, mean of 2 arrays, mostly near background
Residues (chain): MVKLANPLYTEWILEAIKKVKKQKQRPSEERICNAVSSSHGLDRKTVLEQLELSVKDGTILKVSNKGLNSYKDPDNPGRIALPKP
Sequence	E-score
CAGAGATC	-0.257
AGGGGTTG	-0.156
AAATTGAA	-0.257
CCTTAGCG	0.296
TAGTGCAA	-0.0181
CAGTACGA	-0.079
ATAAAGGG	0.0998
CTTTGTGC	-0.0661
CCAGAACA	-0.215
AGATGAGG	-0.258
AGTAATGC	0.0868
GGGCAGTA	0.0194
AATCCCTC	-0.0666
CGGTATGC	0.246
CAAGGTAC	-0.0375
GTTGGTCA	-0.112
TCCCTCCA	0.0215
AAAGAGAC	-0.232
CAGTACTA	-0.109
ATTTAAAT	-0.155
AGCCGAGG	0.0176
AGCCCTCC	-0.129
AGGCGTGA	-0.0816
ATAGGGAG	-0.116
AATCCGGT	0.017

Series 3 — technique: universal PBM; form: double-stranded DNA, one strand shown; sample: in vitro; concentration: not given; reading: higher = stronger binding
Target: Sal-like protein 4, full length isoform B (SALL4, Homo sapiens, UniProt Q9UJQ4-2, residues 1-616)
Setting: 8-mer, flanks averaged, mean of replicates
Residues (chain): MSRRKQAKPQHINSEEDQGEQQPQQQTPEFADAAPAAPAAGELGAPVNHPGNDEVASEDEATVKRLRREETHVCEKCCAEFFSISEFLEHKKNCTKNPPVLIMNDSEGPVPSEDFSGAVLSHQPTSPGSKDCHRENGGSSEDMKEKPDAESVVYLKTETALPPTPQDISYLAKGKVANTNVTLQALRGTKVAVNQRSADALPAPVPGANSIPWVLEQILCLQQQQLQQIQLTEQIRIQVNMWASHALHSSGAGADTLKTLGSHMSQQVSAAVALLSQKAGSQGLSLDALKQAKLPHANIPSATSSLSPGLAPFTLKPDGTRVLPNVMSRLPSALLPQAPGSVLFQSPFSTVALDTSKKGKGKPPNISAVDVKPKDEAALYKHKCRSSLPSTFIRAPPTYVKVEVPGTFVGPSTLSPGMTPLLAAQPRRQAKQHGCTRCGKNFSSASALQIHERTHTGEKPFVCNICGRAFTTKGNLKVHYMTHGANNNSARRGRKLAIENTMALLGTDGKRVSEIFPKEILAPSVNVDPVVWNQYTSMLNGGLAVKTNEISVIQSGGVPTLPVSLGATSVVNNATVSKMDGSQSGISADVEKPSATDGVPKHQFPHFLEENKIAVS
Sequence	E-score
ATTTAGGG	0.0662
AATGCGGG	-0.0755
ATCACGGG	-0.255
AAACCTGG	-0.21
CGGGGACC	-0.329
AGTTTCAA	0.147
CGCTTATA	0.104
CTCAAGGC	-0.198
CTTAACCC	-0.128
CAGAGTCG	-0.252
CCTCCCAA	-0.177
ACCCACCT	-0.244
CGGAGGTA	-0.109
CGTATGAG	0.0485
GTGACTCA	-0.192
ACAAGCCT	-0.0266
CGCCAACC	-0.185
GTATTGAA	0.283
GATGAACC	-0.241
CTTCTGTC	-0.0313
CGAGTGCC	-0.254
ACCGCGGA	-0.309

Series 4 — technique: RNA Bind-n-Seq; form: RNA; sample: in vitro; concentration: 365 nM; reference: no-protein control; reading: higher = stronger binding
Target: RNA binding protein fox-1 homolog 2, RRM domain, GST-SBP tag (RBFOX2, Homo sapiens, UniProt O43251-10, residues 100-194)
Setting: natural RNA segment, single round, ends assumed
Target sequence (chain): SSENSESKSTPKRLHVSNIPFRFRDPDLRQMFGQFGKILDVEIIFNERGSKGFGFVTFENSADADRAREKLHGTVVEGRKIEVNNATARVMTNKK
Sequence	RBNS enrichment (R)
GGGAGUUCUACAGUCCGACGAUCUAUGCCUAAGUUAACAGUGGAUAAAAGACUUUUCUGUAAACAACUCCAGUAAUAAAUAUCAUGAACUAUAUGGUUUUUGUAUUCAUUUGUUUCUGAAAAAUGUGCAUUAUUGGAAUUCUCGGGUGCCAA	0.667
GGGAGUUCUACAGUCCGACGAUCACACACACACACACGGUUUGAUGAAUUUCCAAACCACGGCUACUCCUUUUUUAAAAACGGGUUUGAACUCCUGUUUAGCCAAGAGUGAUCUUGAGCUGGUCUCCUGCCUCUGGAAUUCUCGGGUGCCAA	0.897
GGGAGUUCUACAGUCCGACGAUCGAUCCUGAGCUGUGUCCUCUGUGAGGACUUCCCUCCCAGGCUUCAAUCCAGAUGUUUCGUUUCCAGGUGCAGCAGCGCUGCCUUGUGCUUUCCUGUGACUUUAAGAGCAUUGGAAUUCUCGGGUGCCAA	0.804
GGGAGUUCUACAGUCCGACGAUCGGGUUAGGGAUGGGCGCUUUCCUCUCUGGUUGUGAACGAAAGGAAGGAACAUCUUUCUAUGGCUAACAAAAACUAAAGGGGAAGUGAGGAAACAGGAAGAAGUAUGGUGGUGGAAUUCUCGGGUGCCAA	0.867
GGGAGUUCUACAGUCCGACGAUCCUCGGUGGCAGAGCCUGGCUAGUGACUACCAUGUUGGUCAGUGCAGCCUGCUAUCACUCCUUCAAGCACAGUUCUGAACCCAGUCCAUCCAUCCAGUGGGCCAGCUCCCAUGGAAUUCUCGGGUGCCAA	0.428
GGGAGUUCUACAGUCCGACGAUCCUACAAGUUCAAGCGUUCCAAGCGCUUCUGUUCCAUGGCUUGUGCAAAGAGGUAUAAUGUGGGAUGCACCAAACGAGUGGGACUUUUUCACUCAGACCGAAGCAAGCUGCUGGAAUUCUCGGGUGCCAA	0.286
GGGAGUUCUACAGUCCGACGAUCUUUUUUUUUUUGUACCUUUCUGGGAUUUUAAUUCUUGCUAGUUACCGAUGUAUGAUGUGAAAAGGAAACAGAUGAUGAUGUGUAUAAUAAAAUUGUUACCAUUCACUCAGUGGAAUUCUCGGGUGCCAA	0.786
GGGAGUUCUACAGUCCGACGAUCAAACGACCAAAAAACCAACAGUAACACCAGUGAAACCCCACACUGUCGGGCUUAUAAAAAUCUGUGCCAUCAUGGUGAUUUUAUCCAAGACUGCUCCACUUACCCCAGUGUGGAAUUCUCGGGUGCCAA	0.4
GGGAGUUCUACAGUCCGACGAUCAGUCAACAGCAAGAGCAAGAAGCACAUAGGAACUAUACCUGCAACCAAGCUGGCAUAAGAACCAAGACCUUCAAAGCAGCCUGAACUCAAGAUGACAUAUUUUACAAGUUUGGAAUUCUCGGGUGCCAA	0.621
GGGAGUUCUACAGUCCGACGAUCACCCGCCCCAUACCAGCCCUUGGCUUGGGUCCUUUUUCUCCAGAAAAACAUAUAUUUUGCAGAGCUCCACAUACAGAAACACAUUAUUUUGCAGAAAUAAGUGUUUGUAAUGGAAUUCUCGGGUGCCAA	0.577
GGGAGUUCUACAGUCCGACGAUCAUUGUGCAAUUUAAGAAUAACUUAAGGAUCUUGGACUUUACAUAAAUCUUGAAUUGUAUAAACUCUACCUUGAGUCCAUUUUUUCUUCAGUGGAGUGGUGACAAAGAUUUUGGAAUUCUCGGGUGCCAA	0.488
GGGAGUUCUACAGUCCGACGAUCAUUGUAUGCAUAUAUGUGUAUAUGUUAUAAACGUGAAAUAUAUUUGACACACACAUUCACAUAUAAAUUGUUAAAAACUGAAGGCAGAAUGGAACUAAUAUAUGUAACAGUGGAAUUCUCGGGUGCCAA	1.07

For quick reference, copied from above (series 3):
Sequence	E-score
CGCTTATA	0.104
CTTCTGTC	-0.0313
AATGCGGG	-0.0755
ACAAGCCT	-0.0266
